Experimental data gathered from unrelated publications.
Compare with care: the assays were run in different laboratories. Numbers after ± are the reported error.
Sequence of UniProt P52564 (whole entry, looked up): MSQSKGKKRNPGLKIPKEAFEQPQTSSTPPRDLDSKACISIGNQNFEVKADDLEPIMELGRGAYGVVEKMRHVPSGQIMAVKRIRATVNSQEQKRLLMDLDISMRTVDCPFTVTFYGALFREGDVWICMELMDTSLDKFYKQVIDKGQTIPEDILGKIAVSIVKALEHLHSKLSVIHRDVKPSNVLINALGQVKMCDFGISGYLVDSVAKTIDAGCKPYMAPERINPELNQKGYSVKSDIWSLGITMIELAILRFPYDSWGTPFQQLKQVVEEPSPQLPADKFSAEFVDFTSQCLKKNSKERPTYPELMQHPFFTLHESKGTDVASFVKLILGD
Sequence of UniProt Q14680 (whole entry, looked up): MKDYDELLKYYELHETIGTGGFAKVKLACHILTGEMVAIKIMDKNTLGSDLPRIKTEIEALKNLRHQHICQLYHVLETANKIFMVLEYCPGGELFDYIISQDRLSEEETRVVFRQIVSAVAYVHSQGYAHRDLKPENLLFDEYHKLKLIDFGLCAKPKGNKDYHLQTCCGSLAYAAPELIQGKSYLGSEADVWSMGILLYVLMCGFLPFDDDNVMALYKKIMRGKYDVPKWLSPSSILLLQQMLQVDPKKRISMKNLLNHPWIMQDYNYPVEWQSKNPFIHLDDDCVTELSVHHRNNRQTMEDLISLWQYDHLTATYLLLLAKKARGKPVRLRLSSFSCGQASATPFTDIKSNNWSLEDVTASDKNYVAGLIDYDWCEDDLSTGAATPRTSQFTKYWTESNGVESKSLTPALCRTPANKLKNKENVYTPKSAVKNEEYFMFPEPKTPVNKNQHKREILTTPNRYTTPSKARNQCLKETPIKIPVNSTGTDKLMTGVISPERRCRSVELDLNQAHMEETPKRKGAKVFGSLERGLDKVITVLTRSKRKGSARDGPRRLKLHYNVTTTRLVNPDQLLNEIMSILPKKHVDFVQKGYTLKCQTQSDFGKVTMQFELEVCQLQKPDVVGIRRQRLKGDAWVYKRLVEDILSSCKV
Sequence of UniProt Q15303 (whole entry, looked up): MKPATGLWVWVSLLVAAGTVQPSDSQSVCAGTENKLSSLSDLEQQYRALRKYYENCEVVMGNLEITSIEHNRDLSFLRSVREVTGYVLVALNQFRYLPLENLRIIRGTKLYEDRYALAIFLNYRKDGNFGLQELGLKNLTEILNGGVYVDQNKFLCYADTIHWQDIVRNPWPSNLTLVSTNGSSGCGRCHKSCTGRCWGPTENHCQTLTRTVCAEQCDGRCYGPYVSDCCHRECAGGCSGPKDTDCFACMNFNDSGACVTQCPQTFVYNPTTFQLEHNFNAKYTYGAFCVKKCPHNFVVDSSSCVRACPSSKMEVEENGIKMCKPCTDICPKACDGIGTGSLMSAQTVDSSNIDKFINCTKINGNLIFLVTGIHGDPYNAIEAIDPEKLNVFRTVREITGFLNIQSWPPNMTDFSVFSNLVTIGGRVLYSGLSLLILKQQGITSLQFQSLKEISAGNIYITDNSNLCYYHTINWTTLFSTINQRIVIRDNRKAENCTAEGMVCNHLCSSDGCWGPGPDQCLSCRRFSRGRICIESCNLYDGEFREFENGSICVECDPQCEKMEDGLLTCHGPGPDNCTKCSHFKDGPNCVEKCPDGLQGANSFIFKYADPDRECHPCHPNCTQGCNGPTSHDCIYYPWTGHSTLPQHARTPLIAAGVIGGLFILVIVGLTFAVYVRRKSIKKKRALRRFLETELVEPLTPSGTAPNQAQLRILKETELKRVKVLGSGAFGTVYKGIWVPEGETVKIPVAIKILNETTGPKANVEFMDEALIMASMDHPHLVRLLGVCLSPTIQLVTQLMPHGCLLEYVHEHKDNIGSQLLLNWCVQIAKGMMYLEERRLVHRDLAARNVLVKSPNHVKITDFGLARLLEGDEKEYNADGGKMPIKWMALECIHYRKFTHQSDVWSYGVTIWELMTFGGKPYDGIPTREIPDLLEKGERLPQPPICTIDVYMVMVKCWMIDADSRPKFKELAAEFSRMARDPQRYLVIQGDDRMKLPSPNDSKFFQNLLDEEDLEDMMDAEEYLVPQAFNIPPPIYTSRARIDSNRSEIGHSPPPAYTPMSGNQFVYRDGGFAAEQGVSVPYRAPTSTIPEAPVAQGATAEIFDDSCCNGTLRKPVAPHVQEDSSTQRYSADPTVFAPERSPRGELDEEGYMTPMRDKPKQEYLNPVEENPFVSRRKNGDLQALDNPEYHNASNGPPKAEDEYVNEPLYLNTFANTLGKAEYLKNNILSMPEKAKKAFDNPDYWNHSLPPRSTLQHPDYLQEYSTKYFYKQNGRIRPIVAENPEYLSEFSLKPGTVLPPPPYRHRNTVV

Compound	target or system	assay	system	conditions	scale	measurement	result
CN1Cc2cc(Cl)ccc2-n2c(nnc2C2CCN(c3cccc(F)n3)CC2)C1			Sprague-Dawley rats male, brainstem	intravenous, 0.03 mg/kg, 30 min		concentration	2.9 ± 0.31 ng/mL
CC(C)C[C@H](NC(=O)[C@H](C)NC(=O)[C@H](CCCCN)NC(=O)CCNC(=S)Nc1ccc2c(c1)C(=O)OC21c2ccc(O)cc2Oc2cc(O)ccc21)C(=O)N[C@@H](CCC(=O)O)C(=O)N[C@H](C(=O)N[C@@H](CC(C)C)C(=O)N[C@@H](CCCNC(=N)N)C(=O)N[C@@H](CCCNC(=N)N)C(=O)N[C@H](C(=O)NCC(=O)N[C@@H](CC(=O)O)C(=O)NCC(=O)N[C@H](C(=O)N[C@@H](CCC(N)=O)C(=O)N[C@@H](CCCNC(=N)N)C(=O)N[C@@H](CC(N)=O)C(=O)N[C@@H](Cc1c[nH]cn1)C(=O)N[C@@H](CCC(=O)O)C(=O)N[C@H](C(=O)N[C@@H](C)C(=O)N[C@@H](Cc1ccccc1)C(N)=O)[C@@H](C)O)C(C)C)C(C)C)[C@@H](C)O		circular dichroism	potassium phosphate buffer	20 µM, pH 7.5		α-helicity	18%
N#[11C]c1ccc(-c2csc(NN=C3CCCC3)n2)cc1			C57BL/6 mice, male, bone	intravenous, 3 MBq, 60 min		radioactivity uptake	0.84 ± 0.4 %ID/g
CN(C)[C@H]1C[C@@]23CC[C@@]4(O2)C(=CC[C@]2(C)[C@@H](c5ccc6ccncc6c5)CC[C@H]24)C=C3[C@@H](O)[C@@H]1O	MAP2K6 (Homo sapiens, UniProt P52564)	ATP probe labelling, inhibitor, KiNativ profiling		1 µM		inhibition	6.7%
C[C@H](NCc1ccc(-c2ccc(C(F)(F)F)cc2)cc1)C(N)=O		metabolic stability	human, liver microsomes	1 µM, 30 min, pH 7.4		compound remaining	92.2%
CC(CCC(=O)NCC(=O)O)C1CCC2C3C(O)CC4CC(OC5OC(C(=O)O)C(O)C(O)C5O)CCC4(C)C3CCC12C (stereo not shown)			women, T/T genotype, plasma	dose not given, geometric mean		plasma concentration	18.3 ng/mL
COc1ccccc1-c1n[nH]c2nc(NC3CCN(C(=O)Cc4ccc(F)cc4F)CC3)ncc12		bead binding, competition bead pull-down, refers to: LINJ.35.4620	Leishmania donovani extract	10 µM	baseline: vehicle	relative abundance	0.58
CC[C@H](C)[C@H](NC(=O)[C@H](CCCCN)NC(=O)CNC(=O)[C@H](CC(C)C)NC(=O)[C@H](Cc1ccccc1)NC(=O)[C@H](CCCCN)NC(=O)[C@H](CO)NC(=O)[C@H](Cc1ccccc1)NC(=O)[C@H](Cc1c[nH]c2ccccc12)NC(=O)[C@H](CCC(N)=O)NC(=O)[C@@H](NC(=O)[C@H](Cc1ccccc1)NC(=O)CCCCCNC(=O)CN1CCN(CC(=O)O)CCN(CC(=O)O)CCN(CC(=O)O)CC1)C(C)C)C(=O)N[C@@H](CCC(=O)O)C(=O)N1CCC[C@H]1C(=O)N[C@@H](CC(=O)O)C(=O)N[C@H](C(=O)N[C@@H](CO)C(=O)N[C@@H](CCC(N)=O)C(=O)N[C@H](C(=O)N[C@@H](CCC(N)=O)C(=O)N[C@@H](CC(=O)O)C(=O)N1CCC[C@H]1C(=O)N[C@@H](CC(N)=O)C(=O)N[C@@H](CC(=O)O)C(=O)N[C@@H](CCC(N)=O)C(=O)N[C@@H](Cc1ccc(O)cc1)C(=O)N[C@@H](CCC(=O)O)C(=O)N1CCC[C@H]1C(=O)N[C@@H](Cc1ccccc1)C(=O)O)C(C)C)C(C)C [copper-64 labelled]		dynamic PET	mouse, CT26 tumour, untreated, tumour	intravenous, 100 µCi/mouse, 1500 s		SUVmean	1.1 SUV
CCOc1ccccc1-n1c(CN2CCNCC2)nc2ccccc2c1=O			C57BL/6 mouse, male, plasma	oral, 6 mg/kg		half-life	1.15 h
CS(C)(=O)=Nc1ccc(-c2ccc(-c3nc4cc(O[C@@H]5CO[C@H]6[C@@H]5OC[C@H]6O)[nH]c4cc3F)cc2)cc1	MELK (Homo sapiens, UniProt Q14680)	enzyme activity, inhibitor		10 µM		inhibition	3%
C/C(=N\OCCCN1CCCCC1)c1ccc(C(F)(F)F)cc1			mouse, plasma	oral, 50 mg/kg once daily, day 1		AUC(0-t)	6130 ± 1600 ng·h/mL
CSCC[C@H](N)C(=O)N[C@@H](C)C(=O)N[C@@H](CCCNC(=N)N)C(=O)N[C@@H](CCCNC(=N)N)C(=O)N[C@@H](CC(=O)O)C(=O)N[C@@H](CCCCN)C(=O)N[C@H](C(=O)N[C@@H](CC(=O)O)C(=O)N[C@@H](Cc1ccccc1)C(=O)N[C@@H](C)C(=O)N[C@@H](CCCNC(=N)N)C(=O)N[C@@H](CCCNC(=N)N)C(=O)N[C@@H](CCCNC(=N)N)C(=O)N[C@@H](CCCNC(=N)N)C(=O)NCCCCCC(=O)NCCCCC(NC(=O)CCCCCNC(=O)[C@H](CCCNC(=N)N)NC(=O)[C@H](CCCNC(=N)N)NC(=O)[C@H](CCCNC(=N)N)NC(=O)[C@H](CCCNC(=N)N)NC(=O)[C@H](C)NC(=O)[C@H](Cc1ccccc1)NC(=O)[C@H](CC(=O)O)NC(=O)[C@@H](NC(=O)[C@H](CCCCN)NC(=O)[C@H](CC(=O)O)NC(=O)[C@H](CCCNC(=N)N)NC(=O)[C@H](CCCNC(=N)N)NC(=O)[C@H](C)NC(=O)[C@@H](N)CCSC)[C@@H](C)O)C(=O)NCCCCC(NC(=O)C(CCCCNC(=O)CCCCCNC(=O)[C@H](CCCNC(=N)N)NC(=O)[C@H](CCCNC(=N)N)NC(=O)[C@H](CCCNC(=N)N)NC(=O)[C@H](CCCNC(=N)N)NC(=O)[C@H](C)NC(=O)[C@H](Cc1ccccc1)NC(=O)[C@H](CC(=O)O)NC(=O)[C@@H](NC(=O)[C@H](CCCCN)NC(=O)[C@H](CC(=O)O)NC(=O)[C@H](CCCNC(=N)N)NC(=O)[C@H](CCCNC(=N)N)NC(=O)[C@H](C)NC(=O)[C@@H](N)CCSC)[C@@H](C)O)NC(=O)CCCCCNC(=O)[C@H](CCCNC(=N)N)NC(=O)[C@H](CCCNC(=N)N)NC(=O)[C@H](CCCNC(=N)N)NC(=O)[C@H](CCCNC(=N)N)NC(=O)[C@H](C)NC(=O)[C@H](Cc1ccccc1)NC(=O)[C@H](CC(=O)O)NC(=O)[C@@H](NC(=O)[C@H](CCCCN)NC(=O)[C@H](CC(=O)O)NC(=O)[C@H](CCCNC(=N)N)NC(=O)[C@H](CCCNC(=N)N)NC(=O)[C@H](C)NC(=O)[C@@H](N)CCSC)[C@@H](C)O)C(N)=O)[C@@H](C)O (stereo partly shown)			C57BL/6 mouse female, liver	dose not given, 6 h	baseline: total	mean tissue distribution	5.49%
CC(C)(C)C(=O)OCOP(=O)(OCOC(=O)C(C)(C)C)C1CCCN(O)C1=O (stereo not shown)	IGROV-1					log GI50	-6.41 log M
CC(=O)NCCCC[C@@H]1NC(=O)[C@H](Cc2c[nH]c3c(C)cccc23)NC(=O)[C@H]([C@@H](C)O)NC(=O)[C@H](CC(N)=O)NC(=O)[C@@H](NC(C)=O)C(C)(C)SSC(C)(C)[C@@H](C(=O)N[C@@H](Cc2ccc(OCCN)cc2)C(=O)N[C@@H](Cc2ccc3ccccc3c2)C(=O)NC2(C(=O)N[C@@H](CCC(=O)O)C(=O)N[C@@H](CC(N)=O)C(=O)N[C@@H](Cc3cccnc3)C(=O)N(C)CC(N)=O)CCOCC2)NC1=O		equilibrium dialysis	human, plasma	0.1 µM		plasma protein binding	52.6 ± 0.6%
CCCCC[C@@H]1NC(=O)[C@@H](C)N(C)C(=O)[C@H](CCCCC)N(C)C(=O)[C@@H](C)N(C)C(=O)[C@H](CCCCC)N(C)C(=O)[C@@H](C)N(C)C(=O)[C@H](CCCCC)N(C)C(=O)[C@@H](C)N(C)C1=O		PAMPA, HPLC-UV		500 µM, pH 7.4		log Papp	-5.24 ± 0.03
COc1ccccc1-c1n[nH]c2nc(N[C@H]3CC[C@H](NS(=O)(=O)CC(C)C)CC3)ncc12		bead binding, competition bead pull-down, refers to: LINJ.30.0080	Leishmania donovani extract	10 µM	baseline: vehicle	relative abundance	0.13
CC(C)[C@H]1NC(=O)C[C@H]2/C=C/CCSSC[C@@H](NC1=O)C(=O)N[C@H](Cc1cccc3ccccc13)C(=O)NCC(=O)O2	ERBB4 (Homo sapiens, UniProt Q15303)	enzyme activity, inhibitor		10 µM		inhibition	3.4%
CCCCCCCCCCCCCC(=O)N[C@@H](Cc1ccccc1)C(=O)N[C@H](C(=O)N[C@@H](CCC(=O)O)C(=O)N[C@H](C(=O)N1CCC[C@H]1C(=O)N[C@H](C(=O)N[C@H](C(=O)O)[C@@H](C)CC)[C@@H](C)O)[C@@H](C)CC)[C@@H](C)O		slit lamp, fundoscopy, McDonald-Shadduck scoring	Chlorocebus sabaeus	topical ocular, dose not given, 21 days		ocular tolerability	not toxic
O=C1NC2(CC2)COc2ncc(F)cc2[C@H]2COCCN2c2ccn3ncc1c3n2			Sprague-Dawley rats, female, blood	oral, 20 mg/kg/day, end of recovery, 4-week subacute toxicity		haematocrit	38.9 ± 2%

For quick reference, copied from above:
Compound	target or system	assay	system	conditions	scale	measurement	result
CC(CCC(=O)NCC(=O)O)C1CCC2C3C(O)CC4CC(OC5OC(C(=O)O)C(O)C(O)C5O)CCC4(C)C3CCC12C (stereo not shown)			women, T/T genotype, plasma	dose not given, geometric mean		plasma concentration	18.3 ng/mL
CC(=O)NCCCC[C@@H]1NC(=O)[C@H](Cc2c[nH]c3c(C)cccc23)NC(=O)[C@H]([C@@H](C)O)NC(=O)[C@H](CC(N)=O)NC(=O)[C@@H](NC(C)=O)C(C)(C)SSC(C)(C)[C@@H](C(=O)N[C@@H](Cc2ccc(OCCN)cc2)C(=O)N[C@@H](Cc2ccc3ccccc3c2)C(=O)NC2(C(=O)N[C@@H](CCC(=O)O)C(=O)N[C@@H](CC(N)=O)C(=O)N[C@@H](Cc3cccnc3)C(=O)N(C)CC(N)=O)CCOCC2)NC1=O		equilibrium dialysis	human, plasma	0.1 µM		plasma protein binding	52.6 ± 0.6%
CCOc1ccccc1-n1c(CN2CCNCC2)nc2ccccc2c1=O			C57BL/6 mouse, male, plasma	oral, 6 mg/kg		half-life	1.15 h
